Assay results of several laboratories.
Every numbered part comes from another study and shows a few of its results, in no order. Substitutions count along the parent as printed.

Set 1
Target: Interferon regulatory factor 7, full length, phosphomimetic (IRF7, Homo sapiens, UniProt Q92985, residues 1-503, S101K/S471D/S472D/S475D/S476D/S477D/S483D/S484D/S487D)
Method: protein-binding microarray
Molecule type: double-stranded DNA, one strand shown
Medium: in vitro
Concentration: 250 nM
Setting: 60-bp whole probe
Together with: salmon DNA 0.4 mg/ml
Baseline: random background probes
Reading: higher = stronger binding
Shared flanks, not repeated: GCCTAGCAC … GTCTTGATTCGCTTGACGCTGCTG
Residues (chain): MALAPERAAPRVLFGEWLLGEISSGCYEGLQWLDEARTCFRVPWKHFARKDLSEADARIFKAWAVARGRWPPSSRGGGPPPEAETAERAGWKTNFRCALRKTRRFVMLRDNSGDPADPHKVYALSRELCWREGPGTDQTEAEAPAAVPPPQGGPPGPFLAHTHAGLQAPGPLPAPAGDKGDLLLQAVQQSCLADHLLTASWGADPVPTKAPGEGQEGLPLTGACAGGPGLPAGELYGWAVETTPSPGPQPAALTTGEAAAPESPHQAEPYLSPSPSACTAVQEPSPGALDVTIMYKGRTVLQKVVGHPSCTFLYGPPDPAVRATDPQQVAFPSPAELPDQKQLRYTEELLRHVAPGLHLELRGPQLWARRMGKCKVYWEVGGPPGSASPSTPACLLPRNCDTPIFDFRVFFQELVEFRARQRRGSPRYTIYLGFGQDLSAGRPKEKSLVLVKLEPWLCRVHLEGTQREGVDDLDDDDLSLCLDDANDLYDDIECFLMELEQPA
Strand	log fluorescence [z-score]
TTAGGTCTCCTACTGCATTAGTGCTAG	-0.0112
TTAAGACTGGGTATCGGTTAGTGCTAG	0.775
TTAGGTATCGGTCTCCGTTAGTGCTAG	1.39
TATAGCTGATACATATAGCCGTGCTAG	-0.212
TTAGGTTTCGGGCCTGGGTTAGTGCTA	2.14
TGCAACATCTACAATGGCTTTGTGCTA	-0.784
GACGATATCGGGACTGGAAACGTGCTA	0.148
GTCTCTATCAAAAATACAAAAGTGCTA	1.34
TTAGGTCTCGGTCTCAGTTAGTGCTAG	1.3
GACGGTCTCCCTTTCCTGACGTGCTAG	0.625
TTAGGCTTCCTTTCCCTTTAGTGCTAG	0.598
TAAGAACTGGGGTATCGATTAGTGCTA	0.559
TTAGATCTCGGGTTTCGATTAGTGCTA	6.88
GACGATTTCGGTCTCGGGACGTGCTAG	1.02
GCCGGTATCGGGTTTCGGGACGTGCTA	3.21

Set 2
Target: CCNB2, cyclin fold, Cln2 fusion (human)
Method: yeast growth competition, sequencing
Medium: yeast
Setting: weak parent motif
Baseline: not given
Reading: higher = stronger binding
Starting sequence: SLBP docking peptide (human); ARYKRKLLINDFG
Variant	normalised enrichment score
N10K	0.551
K4I	0.316
I9V	0.618
I9P	0.75
D11R	0.531
N10S	0.493
D11Q	0.204
N10W	0.995
L7D	0.313
K4F	0.88
R2G	0.763

Set 3
Target: Histone acetyltransferase KAT6A, winged helix 2, GST fusion (KAT6A, Homo sapiens, UniProt Q92794, residues 85-181)
Method: protein binding microarray
Molecule type: double-stranded DNA, one strand shown
Medium: in vitro
Concentration: not given
Setting: 8-mer, flanks averaged, mean of 2 arrays, mostly near background
Baseline: not given
Reading: higher = stronger binding
Residues (chain): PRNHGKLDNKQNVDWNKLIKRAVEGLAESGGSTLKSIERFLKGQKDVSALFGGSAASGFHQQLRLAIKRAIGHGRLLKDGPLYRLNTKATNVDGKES
Strand	E-score
AGCTTCCT	0.0779
AGGCGCCG	0.21
CAGAGTCA	-0.0375
ATGCTCCA	0.026
ACTCCCTC	-0.112
CTTATAAC	-0.0323
GACGTCTC	-0.0325
CGCAACAA	0.0883
CACATTAA	-0.147
CCCGGAAG	0.0613
AATTCGAC	-0.0328
GCTACCCC	-0.102
AGGACACT	-0.0415
CCAAAGGA	-0.0885
GAACACTA	-0.172
AAGGGGAT	-0.106
CCTACCTA	-0.18

Single results of other studies
Molecule	target	assay	test system	conditions	scale	quantity	result
PhoQ, residues 284 288 289 292 302 303 STVVAA	PhoP, residues 12 14 15 18 19 QYCSL (Escherichia coli, UniProt P23836)	Sort-seq, refers to: YFP reporter	E. coli	PhoQ-PhoP variant library, together with: 10 µM Mg2+	baseline: high Mg2+ state, higher = stronger signaling	fold induction	5.89

Excerpt of the above (set 3):
Strand	E-score
CCTACCTA	-0.18
AAGGGGAT	-0.106
ACTCCCTC	-0.112
